Results gathered from unrelated publications.
Parts stem from different laboratories: compare values within a part only. Changes are numbered by the printed parent chain.

Study 1 — method: DHFR PCA, deep sequencing; sample: yeast; together with: (+)-ABA 710 µM; relative to: wild-type fitted maximum; direction: higher = stronger binding
Target: ABI1, truncated, D143A, DHFR fusion (Arabidopsis thaliana)
Notes: methotrexate growth selection, single substitutions
Parent: PYL1, truncated, DHFR fusion (Arabidopsis thaliana); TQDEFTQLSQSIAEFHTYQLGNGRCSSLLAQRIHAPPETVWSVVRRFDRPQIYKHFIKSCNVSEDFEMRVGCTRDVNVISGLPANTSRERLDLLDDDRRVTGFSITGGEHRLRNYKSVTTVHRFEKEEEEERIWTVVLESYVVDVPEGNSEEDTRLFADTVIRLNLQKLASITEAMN; partner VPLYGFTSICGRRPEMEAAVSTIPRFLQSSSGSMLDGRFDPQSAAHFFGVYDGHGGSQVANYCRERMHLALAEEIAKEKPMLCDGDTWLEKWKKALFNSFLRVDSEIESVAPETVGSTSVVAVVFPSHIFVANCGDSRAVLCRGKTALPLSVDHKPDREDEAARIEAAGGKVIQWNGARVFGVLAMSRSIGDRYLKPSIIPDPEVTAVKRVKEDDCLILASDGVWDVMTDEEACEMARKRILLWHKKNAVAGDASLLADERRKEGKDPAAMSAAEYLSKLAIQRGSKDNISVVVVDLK
Variant | relative binding score [%]
S27N | 103
V44G | 1.29
T6G | 108
Q7A | 105
I79A | 105
E151C | 97.4
E128A | 107
R99C | 99.8
V121L | 102
P50C | 84.5
N114W | 39.5
T1D | 102
T17R | 101
A158S | 90.4

Study 2 — method: EMSA with sequencing; form: double-stranded DNA, one strand shown; sample: in vitro; tested at: 10 and 20 nM; relative to: negative control set to 0; direction: higher = stronger binding
Target: Hepatocyte nuclear factor 3-alpha (Foxa1, Mus musculus, UniProt P35582, residues 1-468, full length assumed)
Chain of UniProt P35582 (whole entry, looked up): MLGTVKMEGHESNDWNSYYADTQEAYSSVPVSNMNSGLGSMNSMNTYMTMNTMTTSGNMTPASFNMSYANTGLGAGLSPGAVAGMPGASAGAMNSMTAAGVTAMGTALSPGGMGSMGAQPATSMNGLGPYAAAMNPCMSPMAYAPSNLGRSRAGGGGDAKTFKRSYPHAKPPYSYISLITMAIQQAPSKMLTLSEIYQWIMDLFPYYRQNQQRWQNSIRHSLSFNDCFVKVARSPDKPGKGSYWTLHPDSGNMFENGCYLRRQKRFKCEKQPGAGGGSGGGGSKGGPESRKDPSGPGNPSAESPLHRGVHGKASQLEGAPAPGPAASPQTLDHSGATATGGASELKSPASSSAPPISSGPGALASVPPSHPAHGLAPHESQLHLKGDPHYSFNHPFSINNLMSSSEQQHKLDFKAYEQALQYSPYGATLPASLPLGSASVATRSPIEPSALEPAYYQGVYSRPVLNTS
Notes: whole designed probe, mean of two concentrations, ends assumed
Strand | normalised bound fraction
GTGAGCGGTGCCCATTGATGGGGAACATCTTCCCCCTCTTCCTTGCCCCACCAGCTCACCTTCCCGGGTTATTTGCAGATAGGAAAATAAATAAAGCCGGCATTCGTTAACGCAGTTCTGGCGCAAACTGCTGTTTGCTCTGGATCTAACATGGTCCTTTGGCGAGGCGTGGCTCCGGGAGAGCAAAGCACCGTGTCAGGGCCATGATCCGGGCTCGCCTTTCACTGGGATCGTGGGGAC | 0.347 ratio
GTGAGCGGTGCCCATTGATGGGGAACATGAAACTGGTCCCTGGTGCCAAAAAGGTTGGGAACTGCTGACGTAGTGGATAAAGGGAACAGAGGTAAATAGACATTTAGTGTGAGGTTTCAAGATTACTTAGCTACGAATTAGGCTGTGTTTGCAGATTGCTGTCACTTTAGGTGTCAGAGGTTAAAATCTCTGGTGTCCTTGTTTCTGTCTCTCCTGTTGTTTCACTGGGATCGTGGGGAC | 0.111 ratio
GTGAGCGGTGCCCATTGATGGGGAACGGCTGTTTAGGTAGCTGGCAGGAAGTAGTATGTGTCTCCAGAGCATAAAATTGGCCGCAAAGTAGGTAGGGCCTATGAAAATACTGATGTAATGTAAACATTGTATTTCTAAACTATTTACAAGGTCATCCCTACCCTACATGAGAGGTCAGCTCTACCACTAAGAGGTCCCACATGGACTTCTACAATATTCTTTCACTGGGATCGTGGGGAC | 0.479 ratio
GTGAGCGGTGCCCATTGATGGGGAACATCTTCCCCCTCTTCCTTGCCCCACCAGCTCACCTTCCCGGGTTATTTGCAGATAGGAAAATAAATAAAGCCGGCATTCGTTAACGCAGTTCTGGCGCAAACTGCTGTTTGCTCTGGATCTAACATGGTCCTTTGGCGAGGCGTGGCTCCGGGAGAGCAAAGCACCGTGTCAGGGCCATGATCCGGGGTGGCCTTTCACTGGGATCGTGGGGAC | 0.346 ratio
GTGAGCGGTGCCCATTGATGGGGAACAAAAGCCAACTAAATATTTATTTCAAAAGTAGTTCATATTACATGTAAAGAATGGTTTAAAAAAAATTCTTACTTAATCCCTGGTTTATGTGAGTAATTTTGAATTCTTAAGAATCCCATTTCCCAAATGGCATCATAATATTTTGTAATCATTTCTTGCCACAGGTCATATATCGTGGATAGTTCTGTATGTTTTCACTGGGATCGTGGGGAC | 0.0173 ratio

Study 3 — target: CCND2, cyclin fold, Cln2 fusion (human); method: yeast growth competition, sequencing; sample: yeast; notes: weak parent motif; relative to: not given; direction: higher = stronger binding
Parent: MICAL3 docking peptide (human); LQLRRQLSFSEDS
Variant | normalised enrichment score
Q6Y | -0.0631
S10Y | 0.167
S8Y | 0.226
R4E | -0.489
L7V | 0.415
L3Q | 0.0997
R4F | 0.0741
L3G | 0.371
L7K | 0.0385
D12S | -0.145
S8I | 0.36
R4T | -0.178
S10R | 0.266
R5Q | -0.0869
Q6L | -0.0599
D12L | 0.391
F9M | -0.149
L7N | 0.137

Study 4 — method: protein-binding microarray; form: double-stranded DNA, one strand shown; sample: in vitro; tested at: 250 nM; notes: 60-bp whole probe; together with: salmon DNA 0.4 mg/ml; relative to: random background probes; direction: higher = stronger binding; constant ends, left off below: GCCTAGCAC … GTCTTGATTCGCTTGACGCTGCTG
Target: Interferon regulatory factor 7, full length, phosphomimetic (IRF7, Homo sapiens, UniProt Q92985, residues 1-503, S101K/S471D/S472D/S475D/S476D/S477D/S483D/S484D/S487D)
Residues (chain): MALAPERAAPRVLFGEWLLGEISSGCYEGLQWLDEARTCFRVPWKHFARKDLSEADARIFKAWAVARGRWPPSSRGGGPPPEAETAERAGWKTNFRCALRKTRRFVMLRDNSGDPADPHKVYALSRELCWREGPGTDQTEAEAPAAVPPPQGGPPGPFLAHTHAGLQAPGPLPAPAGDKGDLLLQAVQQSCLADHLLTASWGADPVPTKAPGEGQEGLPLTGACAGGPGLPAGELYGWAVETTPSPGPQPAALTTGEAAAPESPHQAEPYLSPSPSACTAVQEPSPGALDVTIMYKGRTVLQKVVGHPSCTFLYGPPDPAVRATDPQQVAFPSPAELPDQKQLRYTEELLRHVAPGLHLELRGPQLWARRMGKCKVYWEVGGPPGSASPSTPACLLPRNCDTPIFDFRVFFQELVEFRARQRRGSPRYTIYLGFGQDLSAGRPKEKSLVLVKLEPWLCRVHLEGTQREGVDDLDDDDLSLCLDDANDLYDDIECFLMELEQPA
Strand | log fluorescence [z-score]
TTAGGTCTCCTTGTCCTTTAGTGCTAG | -0.43
GTCGGTTTCCTTTCCCTGACGTGCTAG | 6.29
GACGATATCAGATTCGAGACGTGCTAG | 0.563
GACGATTTCGGTATCGGGACGTGCTAG | 1.6
TCAGGTCTCCTACTGCTTTAGTGCTAG | -0.0701
TTAGGTATTGACTATCGGTTAGTGCTA | -0.391
TTAGGACTGTGACTGGGTTAGTGCTAG | -0.43
TAAGGTATCGGTTTCGGTTAGTGCTAG | 11.1
TCATTAATGCTTCTGGAACTGTGCTAG | 0.339
TAGTTTCTAAAACTCTTTATGTGCTAG | 2.74

Study 5 — method: RNA Bind-n-Seq; form: RNA; sample: in vitro; tested at: not given; notes: RNA with constant flanks, ends assumed; relative to: input RNA pool; direction: higher = stronger binding
Target: RING finger protein unkempt homolog, zinc fingers 1-6, GST-SBP tag (UNK, Homo sapiens, UniProt Q9C0B0, residues 30-357)
Chain of UniProt Q9C0B0 (30-357, looked up): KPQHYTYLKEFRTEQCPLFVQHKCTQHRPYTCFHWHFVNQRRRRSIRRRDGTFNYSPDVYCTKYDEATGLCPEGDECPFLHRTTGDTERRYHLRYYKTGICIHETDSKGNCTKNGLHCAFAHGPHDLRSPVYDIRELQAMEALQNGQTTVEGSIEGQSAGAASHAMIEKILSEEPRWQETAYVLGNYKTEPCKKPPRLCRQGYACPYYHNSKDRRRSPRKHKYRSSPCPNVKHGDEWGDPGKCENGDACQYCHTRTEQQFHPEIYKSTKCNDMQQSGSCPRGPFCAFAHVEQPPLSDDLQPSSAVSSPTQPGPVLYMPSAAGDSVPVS
Strand | bound/input enrichment [ratio]
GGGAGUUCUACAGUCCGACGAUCCAAAUACUAGAGAAUCUUUCCACUUCGCCUCUGGCUGAGCCACCCCACUUUGUUGAACAUAUCCGAUCUACCUUGAUGUUUUUAAAAAAACACCCAUCUCCAGCUCACACACUGUUUUCUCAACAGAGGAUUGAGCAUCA | 0.884
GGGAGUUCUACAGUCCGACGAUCAAGGCAUCUUGUACGUCGUUACAUUUAUCAUAUUGGAAGUCCCUUAAGCUCCUAGGAUUUUCCGAUGUUGAAAAUACUCCCUGCGCCCGGCAUUCAAUAUUGUAUGGUUCAUUAGGAUCUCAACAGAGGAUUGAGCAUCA | 0.364
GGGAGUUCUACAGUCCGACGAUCCCAGUACCUCUCAAACGAUCUUUAGAUAGUUAACUUCUACUACUAUUUAACGUUAUCUUUCCGCACUCAUAGAACAAACCAAGAUAUGGAAGAAGACAUAUUCAAAAGGUGGGCUUGUCUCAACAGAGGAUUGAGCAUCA | 0.969
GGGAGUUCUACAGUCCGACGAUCAUAAAAUUAGAAACUUAAAUUCCAAGCUAAAUUUCAGCUUUGACCCACCUAACUCCAGUGAACCGGUGGCAGCUCAGAAACAAGGACAGCACUGCUGCUGCCAGAGCAAGCUCACAUCCACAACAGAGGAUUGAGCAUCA | 6.28
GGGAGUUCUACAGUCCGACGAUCUACACAAAAAGUUGUGUCAUAACUUACCCAGAUAUGUUUUUCUAUCAUUUGAAACCUUUUCCGCUACUGUUUGUUUUCAUUCAACUAACAAACAUAUUCCAAUAAUAAAAGCAGUAUAUACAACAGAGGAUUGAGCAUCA | 0.609
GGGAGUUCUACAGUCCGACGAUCGUUUUUAUCAUUUUAAGAACAUUUCAUAAACAGAAUUGUACUUUUAAAAACAAUUUUUUAUUCCGCAUUCUACCUUUUGAAAUGUACUGUCUUACUCCAAAUAAUAUCCUGAGAUCUAUCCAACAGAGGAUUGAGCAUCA | 0.346
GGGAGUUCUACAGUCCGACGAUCUUUUAUAUCAAACAAAAGAAAGCUAGACCUUCCGUCAAAGAAACUCUUCAGAAGUCUGGUGUCCGGAAAGAGUUUCCAAUUACUGAGGCAGUAGGAUCUGAUAAGACAAAUAGGCAUCCCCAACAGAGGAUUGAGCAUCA | 1.12
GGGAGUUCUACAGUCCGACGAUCGAGAAGACAGGGCACAGUGGUACGCUGGAUCCCAAGGUGACUGGUUGUUUAAUCGUGUGCACCGAACGAGCCACUCGCUUGGUGAAGUCACAACAGAGUGCAGGCAAAGAGUAUGUGGGGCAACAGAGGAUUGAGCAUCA | 0.204

For quick reference, copied from above (study 3):
Variant | normalised enrichment score
R4T | -0.178
L7N | 0.137
R4E | -0.489
